Experimental data from different studies.
Lines come from different studies, so protocols differ. ± gives the spread as reported.

| Structure (SMILES) | assay | test system | conditions | how to read | measurement | value |
| --- | --- | --- | --- | --- | --- | --- |
| CC[C@H](C)[C@H](NC(=O)[C@H](CCCCN)NC(=O)[C@H](CC(N)=O)NC(=O)CNC(=O)[C@@H](NC(=O)[C@H](C)NC(=O)[C@H](CCCNC(=N)N)NC(=O)[C@H](CC(C)C)NC(=O)[C@H](CCCCN)NC(=O)[C@H](CCCCN)NC(=O)[C@H](CCCCN)NC(=O)[C@H](C)NC(=O)[C@H](CCCCN)NC(=O)[C@@H]1CSSC[C@H](NC(=O)[C@H](CCCNC(=N)N)NC(=O)CN)C(=O)N[C@@H](CC(N)=O)C(=O)N[C@@H](CC(C)C)C(=O)N[C@@H](CC(C)C)C(=O)N1)C(C)C)C(=O)N[C@@H](CCCCN)C(=O)N[C@@H](CCC(=O)O)C(=O)N[C@H](C(=O)N[C@@H](CCCCN)C(=O)N[C@@H](CC(N)=O)C(=O)N[C@H](C(=O)N[C@H](C(=O)N[C@@H](Cc1ccccc1)C(=O)N[C@@H](CC(N)=O)C(=O)N[C@@H](CCCNC(=N)N)C(=O)O)C(C)C)C(C)C)[C@@H](C)CC | item: TNF-α | BALB/c mice, CLP-induced sepsis, serum and lung | intraperitoneal, 5 mg/kg, 12 h post-surgery | baseline: vehicle | cytokine level | decreased |
| CC(C)c1cnc(-c2cc(Cl)ccc2F)cc1Nc1ccncc1C(=O)NC(CO)CO | flow cytometry, item: pSMAD2/3 | patients, peripheral monocytes | 375 mg |  | inhibition | 75% |
| CC(=O)Nc1ccc(OC(=O)CCC(=O)[O][Pt-2]23([O]C(=O)CCC(=O)Oc4ccc(NC(C)=O)cc4)([NH2+][C@@H]4CCCC[C@H]4[NH2+]2)[O]C(=O)C(=O)[O]3)cc1 |  | BALB/c mouse, 4T1 tumour, tumour tissue | dose not given | baseline: PBS | TNF-alpha level | 3 fold |
| COc1cc2c(cc1OC)CC(=O)N(C[C@H]1CCCN(CCOc3ccc(F)cc3)C1)CC2 |  | VTA dopamine neurons, stress-naive male mice | intraperitoneal, 10 mg/kg | baseline: baseline | firing rate | no effect |
| CC(C)(O)c1ccc(N2Cc3c(ccnc3-c3ccc(F)cc3OCC(F)(F)F)C2=O)cc1 |  | Gaucher disease mouse model, brain | 30 mg/kg, single dose | baseline: vehicle | glucosylceramide level | 41 ± 2% |
| CC[C@@H](C)N([11CH3])C(=O)c1nc(-c2ccc(Cl)cc2)c2ccccc2n1 | binding, PET | rhesus monkey, cerebellum | dose not given | baseline: baseline minus preblock VT | specific volume of distribution | 22.3 mL/cm³ |
| COc1ccc(C2CC(c3ccc(C)cc3)=Nc3ccccc3S2)cc1 (centres unmarked) |  | Wistar rat, STZ-induced diabetes | oral, 20 mg/kg once daily, day 7 |  | blood glucose | 235 ± 4.61 mg/dL |
| COc1ccc2nc(C)ccc2c1Nc1sn(C)c(=O)c1C#N | tail sensory nerve conduction | mouse, paclitaxel neuropathy model | oral, 300 mg/kg daily, 15 days post-paclitaxel, together with: paclitaxel | baseline: vehicle | protection of SNAP amplitude | 23.1 ± 7.3% |
| COc1c2c(cc3oc(CO)cc(=O)c13)O[C@H](C(C)(C)O)C2 | analgesic effect | mouse | oral, 2 mg/kg, 2 h |  | hot plate latency | 14.6 ± 1.8 s |
| CC(=O)N[C@@H](CC(N)=O)C(=O)NCC(=O)N[C@@H](CCCNC(=N)N)C(=O)N[C@@H](C)C(N)=O | 1H NMR | sodium phosphate buffer 50 mM | pH 7.4, 55 °C |  | rate constant succinimide to α-Asp | 2.2 h⁻¹ |
| COc1cc(Cn2ccc3cc(C(=O)NCC45CC6CC(CC(C6)C4)C5)ccc32)ccc1C(=O)NO | immunohistochemistry | 5xFAD mice, brain | intraperitoneal, 10 mg/kg daily, 2 months | baseline: vehicle | microglia IBA1 intensity | decreased |
| CCCCCCCCCn1cc(C(N)(CO)CO)nn1 |  | APP/PS1 mouse, neurons | dose not given |  | ceramide level | decreased |
| CN1CCC[C@]1(C)/C=C/S(=O)(=O)NC(=O)Nc1c2c(cc3c1CCC3)CCC2 | IL-1β release, ex vivo whole blood | human, whole blood | oral, 25 mg single dose, 6 h, together with: LPS and ATP |  | inhibition | > 90% |
| Cc1nc(C)c(C=[N+]([O-])C(C)(C)C)nc1C | Western blot, item: Nrf2 | mouse, MPTP model, substantia nigra cytosol | 10 mg/kg |  | protein level increase | 62.4% |

For quick reference, copied from above:
| Structure (SMILES) | assay | test system | conditions | how to read | measurement | value |
| --- | --- | --- | --- | --- | --- | --- |
| CC(=O)Nc1ccc(OC(=O)CCC(=O)[O][Pt-2]23([O]C(=O)CCC(=O)Oc4ccc(NC(C)=O)cc4)([NH2+][C@@H]4CCCC[C@H]4[NH2+]2)[O]C(=O)C(=O)[O]3)cc1 |  | BALB/c mouse, 4T1 tumour, tumour tissue | dose not given | baseline: PBS | TNF-alpha level | 3 fold |
